Measurements pooled from the literature.
Parts stem from different laboratories: compare values within a part only.

Study 1 — method: protein binding microarray; molecule type: double-stranded DNA, one strand shown; sample: in vitro; concentration: not given; baseline: not given; direction: higher = stronger binding
Target: Histone acetyltransferase KAT6A, winged helix 1, GST fusion (KAT6A, Homo sapiens, UniProt Q92794, residues 1-85)
Notes: 8-mer, flanks averaged, mean of 2 arrays, mostly near background
Target sequence (chain): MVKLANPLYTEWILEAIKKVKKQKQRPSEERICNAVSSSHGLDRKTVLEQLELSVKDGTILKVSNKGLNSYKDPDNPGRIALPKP
| Sequence | E-score |
| --- | --- |
| GAGGTCCC | 0.0202 |
| ACCGGCCT | 0.0746 |
| CTTATATA | -0.152 |
| CCTGGGAA | -0.00577 |
| ACCGGAGC | 0.201 |
| AACAGCCT | -0.00053 |
| GAGGAACC | 0.0341 |
| CACAAAGC | -0.0194 |
| CCTATACC | 0.0582 |
| CCTACCCC | 0.0165 |
| TAATGAGA | -0.0876 |
| CCGAGCTA | 0.22 |
| ATCTTATA | -0.118 |
| CCAGTTTC | -0.194 |
| ACTCTCTG | -0.149 |
| AGCTAGCA | -0.104 |
| ACACAGGA | -0.213 |
| CGCGATCC | 0.292 |
| CTCGAAAA | -0.224 |
| GGGAAACA | 0.0347 |
| CCGTGGCC | 0.349 |
| TGGGCTAA | -0.179 |
| CACGTGAA | -0.0152 |
| GCATTTCC | 0.059 |
| CTTGGGAC | -0.222 |

Study 2 — method: EMSA with sequencing; molecule type: double-stranded DNA, one strand shown; sample: in vitro; concentration: 10 and 20 nM; baseline: negative control set to 0; direction: higher = stronger binding
Target: Hepatocyte nuclear factor 3-alpha (Foxa1, Mus musculus, UniProt P35582, residues 1-468, full length assumed)
Chain of UniProt P35582 (whole entry, looked up): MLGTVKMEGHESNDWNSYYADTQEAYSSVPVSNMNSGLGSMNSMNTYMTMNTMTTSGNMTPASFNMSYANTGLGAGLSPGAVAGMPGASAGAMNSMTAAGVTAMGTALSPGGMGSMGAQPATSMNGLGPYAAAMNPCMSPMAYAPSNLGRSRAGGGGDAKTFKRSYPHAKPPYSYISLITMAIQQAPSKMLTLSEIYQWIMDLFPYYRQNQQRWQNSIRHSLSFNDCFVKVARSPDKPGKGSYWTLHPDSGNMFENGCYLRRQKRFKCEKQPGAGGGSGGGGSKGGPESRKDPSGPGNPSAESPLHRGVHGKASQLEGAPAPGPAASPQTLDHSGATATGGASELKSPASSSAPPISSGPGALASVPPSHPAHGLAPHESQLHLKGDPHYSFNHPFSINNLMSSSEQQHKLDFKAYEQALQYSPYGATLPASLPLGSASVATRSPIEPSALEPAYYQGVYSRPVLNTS
Notes: whole designed probe, mean of two concentrations, ends assumed
All sequences stand within: GTGAGCGGTGCCCATTGATGGGGAAC … TTTCACTGGGATCGTGGGGAC
| Sequence | normalised bound fraction [ratio] |
| --- | --- |
| TTTCAAATAAAACAATGTCTTTAAAGAGGACTAAGATTGCAAATGAATGCTTTTAAAGAAATGCAGGAGGATAAATTAGCAAGCAGGAAACAATGTAATCTAATATTTGTGTCCAATTATTGAAAGTGTTTCAATAAGCATGGATAAAGTGGCCTTTAAGCAATCATGATACAGCTAAAAAAGACAATTTTAG | 0.0449 |
| AAAGTAATGAAATAAAAAAAACCTGTTAGCCAAGAATCCTATATCTGGCAAAACCATCCTTCAAAAATGAAGGAGAAATTAAGACATTCCTAGATAAACAAACACTGAGGGAGTTCATTGCTAGTTGGCCTGCCCTACAAGAAATACAAAATACTTCAGGCAGAAGTGAAAAAACACTAAATCTTGAAGCCAT | 0.418 |
| TCTCCCCTGCAGGAGTTTGGACTAATCAGGTCACTACACCCTGACACAGCAGTCTCCAGTCTCTACCACTCATTGTTTGCAACAAGTCGAATTGTCAACAGACCACAGAGAAGTTAGCAACAGGGAAGGGAAAACACTTTAATCTCAAGGTCATCCCCAGGGTTCAGCAGGACATATATCCTATATCGAATCA | 0.157 |
| ATCTTCCCCCTCTTCCTTGCCCCACCAGCTCACCTTCCCGGGTTATTTGCAGATAGGAAAATAAATAAAGCCGGCATTCGTTAACCCTCTTCTGGCGCAAACTGCCAAAGTAAACAGATCTAACATGGTCCTTTGGCGACGCCAGGCTCCGGGAGAGCAAAGCACCGTGTCAGGGCCATGATCCGGGGTGGCC | 0.489 |
| CTTTTAAATATTTCAAAAACTATAACTTATAGGATTGCCAATAAGTAGAAAACTTAGATACTACCTTTTCCCATCCTTTATTTTATTTCAGTGTAATCTTGGCTTTTATTTAACTATTTATATTTTCTTTAATAAAATTTTTAAGAAATTGTACAGGTTTCATAACATTTTATTGTCATCCTGTGCTTAGATT | 0.0734 |
| ATATACCTTTATTGCATATTAACAATTTCATAATGTGTCAAATTTATCCCAAACTTCTAGCTAAAATCTTTAAGAGTGCTGTTAAAGATAATGTAATCTAGCACTATTTTCTTTACTTAGCGAACAAGATTGGCCGAGTAATGTCAATTATTTTGCAACATGTTCCATTAATCAGTATACATTAAGTATCACT | 0.0357 |

Study 3 — method: RNA Bind-n-Seq; molecule type: RNA; sample: in vitro; concentration: 100 nM; baseline: input RNA pool; direction: higher = stronger binding
Target: RING finger protein unkempt homolog, zinc fingers 1-6, SBP tag (UNK, Homo sapiens, UniProt Q9C0B0, residues 30-357)
Chain of UniProt Q9C0B0 (30-357, looked up): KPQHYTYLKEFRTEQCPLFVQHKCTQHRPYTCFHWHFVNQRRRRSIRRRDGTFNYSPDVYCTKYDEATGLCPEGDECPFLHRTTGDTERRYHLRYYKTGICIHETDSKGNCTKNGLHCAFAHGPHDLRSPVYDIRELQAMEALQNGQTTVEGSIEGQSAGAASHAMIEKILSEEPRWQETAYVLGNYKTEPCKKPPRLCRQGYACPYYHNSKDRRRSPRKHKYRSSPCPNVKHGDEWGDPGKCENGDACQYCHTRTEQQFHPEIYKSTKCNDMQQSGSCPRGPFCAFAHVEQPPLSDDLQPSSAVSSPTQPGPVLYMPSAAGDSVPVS
Notes: RNA with constant flanks, vertebrate orthologous sites, ends assumed
All sequences stand within: GGGAGUUCUACAGUCCGACGAUC … CAACAGAGGAUUGAGCAUCA
| Sequence | bound/input enrichment [ratio] |
| --- | --- |
| UCCCAGCACUCUGAUAAAAAGUGUGGACUGGUUGCUUGUAUUUUCCCUAUUCUUUUUAAUCAGUUUUAUUAUGUACGCUACCAUUCGAACUGAGAGUAUUCGGUGGCUGAUUCCGGGACA | 0.505 |
| AUCUUAUAUUGUGGCAUAUAGUCAACAUUGAAAGUAGACCAGCUCUGCUGAUUUGAAAUUUAGAUUUUUUAAUUAUGUACUGGGGACAGGUUUUUUGUCGCUUUACAUUGCUUCCUAGUU | 5.22 |
| GUUGUGACCCAUUUAACAUACACAAAAAACUAGCCAAAAAAAAUUUGCAUGUGAUUGACUUAGAUGAUGCCACUUUCCUGAGUGCAAAAUUUGGAAGACAGCUUGUACCCGGUUGGAAGC | 1.51 |
| UUACAGUCAUUGAUGGACUCUAUUUUUUUAUUAUUACUUGGACCUUGGUCGAUUUUAUACUAGCAAAAUGUCUUGUUUUAAUUUGUGUUUUUUUUGGGGGGCGGGGAGGGAGUGAACUUG | 4.04 |
| CCACGCUUUUAAAAGCCAUUUUGCCAGCAGCGGCAGCCCUGUUUGUGUAGUUCCUCUUAGGGCAAACCUUGUUGAGUCAUAAAUGUUGUAUUCAAGUUUCCAAGUGAUUGUGCAUUUUUA | 0.301 |
| CCUUUAAAUCCCAUAUCUUCCGUUUCAUAGUGCAGAAAUAUUCUUUUCAAUUGUUAUUAGUGGACUUAUUUUAAUUUUAGAGAAACUUCCAGUACAAAUACUGUGAGCUGACAUGGAAAA | 1.56 |
| CCGAAAGGCCAAAUUCCUUCCUCCCUUCUACUGCUUCUCCCAACUGGAAGCACAGAAAACUAGAACUUCAUUUAUUUUGUUUUUUAAAAAGAUACACUGAUUUAACAUCCGAUAGGAAUG | 1.68 |
| AUUCAUUUUUUAAUUUUGGUUUUAUUUUAUACAAUGUGUAGACAGCCCCUGUUCUGCAUUUAGAAGUAUACACAAUAUACAUCUGUUAAUUCUGUAAGUAAUUUUUAUAAUUAUGAUGUA | 0.277 |
| UCUAUUACCCCCUUACUUAAAAUUACCCAAAAAAAUGAUGGCUGUUUGUUUGUUUUCAAAAUGGCUUCUCCUAUUUUUUUAUUCGUCUUGCAAAUCUCAGUUCUGUGUUGUUUGUUCAUA | 0.528 |
| CUUCUACUUCAACUGGUCUUUUUAAGCCAUAGGAACCUUUUUUUUUUUUUUUUUUACAGUUUUAGUAUUUGAUUUUUACAUGGAAGACUAAACUCAUGCUUAGAGCUAAAUACGGUCUUU | 2.55 |
| UUUCUUUUUUUGCACAUGACAGUGUUUGUAUUGAGGACCUUCUAAGGAAGAGGGGUGGUGUAGCAGUGGUGCCUGGGUGCCUGGCCUCCAGUGUCCCACCUCCUUCACCACCCCACUUGG | 0.178 |

Study 4 — method: RNA Bind-n-Seq; molecule type: RNA; sample: in vitro; concentration: 365 nM; baseline: no-protein control; direction: higher = stronger binding
Target: RNA binding protein fox-1 homolog 2, RRM domain, GST-SBP tag (RBFOX2, Homo sapiens, UniProt O43251-10, residues 100-194)
Notes: natural RNA segment, single round, ends assumed
All sequences stand within: GGGAGUUCUACAGUCCGACGAUC … UGGAAUUCUCGGGUGCCAA
Construct (chain): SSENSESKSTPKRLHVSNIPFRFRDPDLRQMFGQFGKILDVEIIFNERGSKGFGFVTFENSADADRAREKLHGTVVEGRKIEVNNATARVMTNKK
| Sequence | RBNS enrichment (R) |
| --- | --- |
| CUCUCAUGCUGUUUCUCUCAGAUGUUCCCAUGAUGGUUGCCAAGGACACUUGAUAGAAAGACUACUGGUUAAACACAAUAAACAAAGUUCAUUAUUCACUUAUUAGCAAG | 0.73 |
| UUGCCCCUCUGAGAAGCAUGAAUGAGCUCACAUUAGUACUGAGAAGUUUGAAGACCAAGAAAUCCUGUAUUUCCUACUCUAGGUGAGACAAUGUGAGAGGACAAAGUAUG | 14.6 |
| UGCCUCCAGUAAAGUGCCCUGGGAAGGGAGCUGGGCAGUGUUUGUGGACGAGAGACUGUAACGAUGGCUAAUAAAAGCUGCGGGUCUAGGUUUUUUUUUUUUUGUUUUGU | 1.44 |
| CUACCCGAUUUGUUUAUUUGCAAUUUGAGCCAUUUAAAGACCAAUAAACUUCCUUUUUUAAAAUGUUUGUGGUGUUACUUGAUGUUUACAAUGUAACAUGUAACAUUCAA | 0.378 |
| CAAGGAGGCUCUGCACAGCUCACUUGUGGGGAAGACGGGACAUGCUUCCAGAUUUUCUUUGGGGGUUAGAAGGUCGGAUGUGGAGUUGACACUUGUUAGUCUCUGUGAGC | 0.944 |
| CUACGUUGUCCAGGAGACCUCCCUGUGACCUGGGGCGUGAACUCUGCCCUCGCUGCAGACAGCAGCCGGAGGCUAUUUUGUAGUGCAGAGAUGACUCACUCACUCCGUGU | 0.229 |
| UGCCCGUAGCCCCUUCCGACUCAGUGGGGCGAGCGCUCAACACGGAUCGCCCCCCCCUUCCCAGUUCUCCAUAUCAGGGUAGAAGAUCUAGGCACUACAUAUGUAAUUGG | 0.434 |
| UGACAGUAUCCCUUAACCUGCCACCGGUUUCCACCUUUCAACCCCCUGGUCUUAUAAGGGGAGGAGAGUUCAGCCCAGCACCAUAAUGCUUUAAAAAAAAAAAUUUUUUU | 0.635 |
| UUUUAAAAAGUAUUGCCAAACAUUAAUGUUGAUUUCUAGUUAUUUAUUCUGGGAAUGUAUAGUAUUUGAAAACAGAAAUUGGUACCUUGCACACAUCAUCUGUAAGCUGU | 0.676 |
| CAGAGGCACCUUACUCUCUGGGGCAUUAUCAGAUUUUAAUAAAUGAAUAAAUAAAUGGUAUUUUUUUUAAAUGUCAGCUCUUCCAUAAUUCAGUCUAGAUAGGAGAUUAU | 0.431 |
| AACAUCCCAGGAAUGAGCUAUAAGACUCCAUUGCUUUCUGGACUUUAGUGACCAGCUGAUCUUCCCUUGGAUCCUCCAAUAAAGGGGAAAAAAUACUUGUCUUAUGUUGU | 0.408 |
| AAUACCUGAUAUAUUAAAAUGUAGUGCCUGUGAAAUCUGUAUUAUAUUGCUCUUCUGAAGUAAGAUUUUUCUACACCGGUAGCCUUCGCUGUCUGUCAGUCAGGACCUUC | 4.44 |

Some of these lines once more (study 1):
| Sequence | E-score |
| --- | --- |
| ACACAGGA | -0.213 |
| CGCGATCC | 0.292 |
| CTCGAAAA | -0.224 |
| GGGAAACA | 0.0347 |
